Assay results from different studies.
A part holds a random share of what one study measured.

Block 1 — method: universal PBM; form: double-stranded DNA, one strand shown; medium: in vitro; tested at: 600 nM; reading: higher = stronger binding
Target: Sal-like protein 4, full length isoform A (SALL4, Homo sapiens, UniProt Q9UJQ4, residues 1-1053)
Chain of UniProt Q9UJQ4 (whole entry, looked up): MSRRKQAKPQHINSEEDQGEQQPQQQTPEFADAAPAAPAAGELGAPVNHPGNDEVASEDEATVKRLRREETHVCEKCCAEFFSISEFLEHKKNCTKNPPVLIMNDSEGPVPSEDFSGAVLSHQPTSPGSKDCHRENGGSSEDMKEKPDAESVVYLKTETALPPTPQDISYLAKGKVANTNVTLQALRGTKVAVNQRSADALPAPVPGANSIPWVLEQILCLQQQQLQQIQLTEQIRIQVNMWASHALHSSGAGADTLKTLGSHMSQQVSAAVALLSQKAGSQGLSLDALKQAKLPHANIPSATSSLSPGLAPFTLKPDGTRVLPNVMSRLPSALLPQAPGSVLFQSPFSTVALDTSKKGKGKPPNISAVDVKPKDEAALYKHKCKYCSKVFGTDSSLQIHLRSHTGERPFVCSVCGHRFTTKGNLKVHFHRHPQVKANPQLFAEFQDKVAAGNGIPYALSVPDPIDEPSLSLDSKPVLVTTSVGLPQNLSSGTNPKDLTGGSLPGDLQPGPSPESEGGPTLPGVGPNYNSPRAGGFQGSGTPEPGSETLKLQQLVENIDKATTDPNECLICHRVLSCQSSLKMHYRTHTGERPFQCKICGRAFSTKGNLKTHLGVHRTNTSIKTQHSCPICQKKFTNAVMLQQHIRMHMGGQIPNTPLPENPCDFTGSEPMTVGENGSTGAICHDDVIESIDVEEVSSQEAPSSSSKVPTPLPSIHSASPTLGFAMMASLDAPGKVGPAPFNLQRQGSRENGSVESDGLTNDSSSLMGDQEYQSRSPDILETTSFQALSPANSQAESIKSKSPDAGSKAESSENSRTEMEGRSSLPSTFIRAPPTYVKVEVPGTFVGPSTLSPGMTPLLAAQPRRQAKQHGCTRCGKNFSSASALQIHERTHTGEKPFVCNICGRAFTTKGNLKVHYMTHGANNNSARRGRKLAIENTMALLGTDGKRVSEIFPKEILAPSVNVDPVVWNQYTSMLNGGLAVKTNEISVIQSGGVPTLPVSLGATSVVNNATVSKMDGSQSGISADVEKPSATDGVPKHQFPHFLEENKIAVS
Notes: 8-mer, flanks averaged, mean of replicates
| Oligonucleotide | E-score |
| --- | --- |
| ATTCGGGC | -0.164 |
| CTTATAAG | 0.238 |
| CGATCAGC | -0.148 |
| AGCGCTCA | -0.227 |
| CGGGTAGC | -0.184 |
| CCCCTGCA | -0.289 |
| CCGCAGGC | -0.286 |
| AGTGCGCC | -0.33 |
| ACTCGCCC | -0.34 |
| ACATGTAA | 0.271 |
| CCCTCTAA | -0.0731 |
| CGTGCAAA | 0.0512 |
| ACGCGCCA | -0.191 |
| ATGTCCCC | -0.0686 |
| CAAAGGGA | 0.00494 |
| ATGAGTTC | 0.107 |
| GATAAAAC | 0.238 |
| GAGGTGAC | -0.0171 |
| AAACTCAG | 0.109 |
| TAGTCGGA | -0.122 |
| AAGCAGAC | -0.188 |
| CCAAGCCG | -0.361 |
| GCAACGCA | -0.204 |
| CGAGCTCA | -0.159 |
| CGCCCAAG | -0.28 |

Block 2 — method: protein-binding microarray; form: double-stranded DNA, one strand shown; medium: in vitro; tested at: 2540 nM top; notes: 60-bp whole probe; together with: salmon DNA 0.4 mg/ml; relative to: random background probes; reading: higher = stronger binding; constant ends, left off below: GCCTAGCAC … GTCTTGATTCGCTTGACGCTGCTG
Target: Interferon regulatory factor 3, full length, phosphomimetic (IRF3, Homo sapiens, UniProt Q14653, residues 1-427, S386D/S396D/S398D/S402D/T404D/S405D)
Chain of UniProt Q14653 (whole entry, unmodified, looked up): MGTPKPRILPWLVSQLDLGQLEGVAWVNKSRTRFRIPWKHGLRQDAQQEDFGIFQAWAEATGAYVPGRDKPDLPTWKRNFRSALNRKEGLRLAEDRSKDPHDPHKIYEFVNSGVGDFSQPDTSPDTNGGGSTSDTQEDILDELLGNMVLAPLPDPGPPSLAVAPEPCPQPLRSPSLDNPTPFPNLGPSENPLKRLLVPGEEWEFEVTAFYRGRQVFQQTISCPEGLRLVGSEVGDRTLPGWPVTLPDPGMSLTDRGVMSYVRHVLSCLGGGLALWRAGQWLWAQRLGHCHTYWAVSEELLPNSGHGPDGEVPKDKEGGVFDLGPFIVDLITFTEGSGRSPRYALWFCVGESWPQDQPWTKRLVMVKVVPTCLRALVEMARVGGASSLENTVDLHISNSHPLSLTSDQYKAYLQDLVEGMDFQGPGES
| Oligonucleotide | fitted relative affinity [z-score] |
| --- | --- |
| TTAGGTTCCGACTTTCGGTTAGTGCTA | 4.11 |
| TTAGGTATCCTATTGCTTTAGTGCTAG | 3.69 |
| GACGATATCGGGACTGAAGACGTGCTA | 0.368 |
| TTAGGTTTCGGCCTCGGTTAGTGCTAG | 2.81 |
| GACGGTTTCCTTTCCGTGACGTGCTAG | 10.1 |
| GACGGATTCCTTATCCTGACGTGCTAG | 3.58 |
| TCAGATTTCAGACTGGATTAGTGCTAG | 1.15 |
| CTGGAATCAATTTATTGACCGTGCTAG | -0.00614 |
| TTAGGTCTCCTACCGCTTTAGTGCTAG | 0.343 |

Block 3 — method: RNA Bind-n-Seq; form: RNA; medium: in vitro; tested at: 100 nM; relative to: input RNA pool; reading: higher = stronger binding
Target: RING finger protein unkempt homolog, zinc fingers 1-6, SBP tag (UNK, Homo sapiens, UniProt Q9C0B0, residues 30-357)
Chain of UniProt Q9C0B0 (30-357, looked up): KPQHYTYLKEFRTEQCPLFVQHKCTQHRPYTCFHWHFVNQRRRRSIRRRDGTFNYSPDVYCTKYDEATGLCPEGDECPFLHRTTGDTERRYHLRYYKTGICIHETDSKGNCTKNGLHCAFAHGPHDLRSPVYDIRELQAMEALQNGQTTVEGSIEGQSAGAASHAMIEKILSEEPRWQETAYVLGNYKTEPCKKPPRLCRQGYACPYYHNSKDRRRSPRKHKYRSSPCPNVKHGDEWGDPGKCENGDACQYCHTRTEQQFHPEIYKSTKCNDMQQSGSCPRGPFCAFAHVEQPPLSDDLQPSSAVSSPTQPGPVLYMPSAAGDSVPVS
Notes: RNA with constant flanks, vertebrate orthologous sites, ends assumed
| Oligonucleotide | bound/input enrichment [ratio] |
| --- | --- |
| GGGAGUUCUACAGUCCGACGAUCAAAUUUAUUUCAUGCCCUGGACUCCCUAUCGUACCGAUACUUUAAUAGAAUAUGCUUCUAUAGAAGAUUUCCAAAACAGUCGCCAAACAACAACAUACAAACUUCCAAAUCGAGUAGAUGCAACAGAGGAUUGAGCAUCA | 1.07 |
| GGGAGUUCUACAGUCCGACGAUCUGAUCGCCACGUGGGACAACUUGACAACAACGAGUGCGAAGUCAUUUCCGUAGUCACAGGAGGUAGCUUAGGGCAGAGUCGCCAUGAUUCAACUCGUGCAAACUUUGUAAAUGUACAAUACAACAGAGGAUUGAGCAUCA | 0.404 |
| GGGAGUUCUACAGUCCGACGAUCGUAUCUUGGUUUGGGGUAGAGGGGAGGGAGGGGCAGAGCUGUGGAAUCUCUCCGGUAUAUGGGUAGAUAAGUGGACCUAUGUUAACCUCUGGGGCAUCUGUUUUGGGGGUGAGUAUGGGUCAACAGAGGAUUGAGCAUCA | 0.491 |
| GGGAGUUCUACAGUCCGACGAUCUGGGCAUCCUCUCUGGGGAGCUGCUGGCCGCUUAGCGUUGUUUGACUUUUGACCUUGACAUAGUACAUAGGCUUGUGGUUUUUUUUAAUUUAAAGAUAUUAAGACUUAAUUCACUAAAAUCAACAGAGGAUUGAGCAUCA | 0.774 |
| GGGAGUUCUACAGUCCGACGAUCAUCUCUCAUUUUCUAUGUCCAAAAAAGGUUUUGAAUUUUUAAACAAUUGCUAGUUUUGAUUAGCUUUGCCCUCAUGAAGUAUUAUAAUCCCCACAAACAGAUAUCUGUCUGAAUUACUUCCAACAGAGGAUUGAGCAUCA | 0.775 |
| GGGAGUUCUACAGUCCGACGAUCCCUACAAUAAUGAAAACUUACAGGAAUUUUUUUAUUUUUCAUUUUCCCCUUAGGCAUACUUAGUCUUUUUUCCCCCAGGCAGAUGAUUCUGAGUGUGCGAGUGUGUGCACAUGUUACAGACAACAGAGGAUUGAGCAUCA | 1.18 |
| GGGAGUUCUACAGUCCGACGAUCGAGCUAAAGGAGUUAGUGUCUUUAUUUUUGUAUCAAAGAUAAAGAUUAUUUUGAAAUUAUUAAGAUUUUUACACAACUCUGAAAUCUGUUGUUUUUGUAAACAAAUUGUUUGAUCGGGGGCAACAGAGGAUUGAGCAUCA | 0.166 |
| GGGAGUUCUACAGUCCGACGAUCGCAUGCACAUGCCGCUGUCACCAAAAGCAAACACGGUCUUCAAAAUCUCCAAUAGCAUUUUUAGUAUUCUCUCCCUCUUUCCUUUCUGUUCCCCUGAUGCUUUAAAUGAUUAGAAGUCCUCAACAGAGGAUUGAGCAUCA | 3.15 |
| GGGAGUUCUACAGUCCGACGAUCUGUUGAUUUCUGAUUUCUAAUUUAUUUUGUUUUGUUAUGGUUUUUUGAUUUGCUAUACCAAAAUGGUGAUCGUAAAAAUUGACCUGUAAUGGGCGUUGCUAUAGUGACAUGCAUUAUGUUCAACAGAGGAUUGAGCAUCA | 0.453 |
| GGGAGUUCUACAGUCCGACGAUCGUGACUUUGGGUGCCCGCAGAUACCGGGUGCAGGCCGUGUUAGGUUCGGUGUCGGCCAACUUUGUUCUCUCCUUCCGGAUCUGAAGCCUCUGCCGCAAACAUGAUCCGCCAUGCCAUCGGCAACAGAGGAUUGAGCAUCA | 0.221 |
| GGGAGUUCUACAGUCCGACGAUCAAUCUUCUACUUAAAAUUGGUAUUUUCAAACAAUAGGGUGGUUUUUUUUUUUUGAUAGUUCAGUAUAUCUGGUUUCUACAUGGAAGACUAAACUCAUGCUUGUUGCUAAUCGUGGUUUUUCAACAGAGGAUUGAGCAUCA | 0.653 |

Block 4 — method: EMSA with sequencing; form: double-stranded DNA, one strand shown; medium: in vitro; tested at: 10 and 20 nM; relative to: negative control set to 0; reading: higher = stronger binding
Target: Hepatocyte nuclear factor 3-alpha (Foxa1, Mus musculus, UniProt P35582, residues 1-468, full length assumed)
Notes: whole designed probe, mean of two concentrations, ends assumed
Residues (chain): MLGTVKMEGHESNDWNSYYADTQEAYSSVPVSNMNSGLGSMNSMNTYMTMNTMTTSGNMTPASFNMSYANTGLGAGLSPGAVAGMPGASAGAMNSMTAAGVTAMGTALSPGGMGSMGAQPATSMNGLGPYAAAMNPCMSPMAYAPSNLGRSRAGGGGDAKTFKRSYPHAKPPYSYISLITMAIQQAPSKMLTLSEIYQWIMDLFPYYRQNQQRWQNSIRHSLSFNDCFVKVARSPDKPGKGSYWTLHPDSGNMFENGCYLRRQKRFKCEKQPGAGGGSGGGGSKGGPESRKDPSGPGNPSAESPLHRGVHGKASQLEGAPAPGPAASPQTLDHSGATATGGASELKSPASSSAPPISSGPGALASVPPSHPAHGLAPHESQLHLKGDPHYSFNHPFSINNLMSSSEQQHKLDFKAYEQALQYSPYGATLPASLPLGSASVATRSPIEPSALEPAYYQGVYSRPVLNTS
| Oligonucleotide | normalised bound fraction [ratio] |
| --- | --- |
| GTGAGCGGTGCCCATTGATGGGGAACCACTCATAGTCTTGCTATCCTTCATATACAGAGATGACCCTCCCAAGCCTAAAATCAACAGGGGGAGGCATAGAGCTGTCCTTCTGGCTCTAATGTTTGCTTTACCATTCCACGCCCATCATCTTAGTCCAGCATGTGAGAGCCAGTGTGAAGTGAGCAGAATATGGCATAAGTATGGAGTCATACATCCTTATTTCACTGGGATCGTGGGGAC | 0.353 |
| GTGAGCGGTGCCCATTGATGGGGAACCTCCACAATATTGCAATAAACTAAATATTATAATATGTTGGCTTTGATTATTCTGTGTCCTAAAATGTGCTTATTTTCTATTCTTTTTTGTCCTTGTTTACATTTAAAATTATACAACTGTCAGTGTTGATTTATAAGATAGAATGTACATATAAACTGGATCTCTGTCTCAGAGTAAGGAGGTGGAAAGAAATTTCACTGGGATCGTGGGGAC | 0.346 |
| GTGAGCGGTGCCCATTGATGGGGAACTCGGCCAGCCTGGCTTCTGCGCCCCGCCAGGAGGTCGCGGAGCGGAGCGCGGCCAGGAAGTGAGCTGAGAGTGAATGACTCATTCACGCTGTTTGTTTATTCATGTCACATTCTCTCCACACACTGGCTCTTCTTTCTTTCGGGAGGAGGGGAGAAAGGAGCGGGAGGGCGGGCGGGCAGGGGAGAGGCAGGCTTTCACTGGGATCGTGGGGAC | 0.457 |
| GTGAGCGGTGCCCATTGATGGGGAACACAGCCTGGTAATACCTCAGGTTCCCAAGAACTCCAGGGCCTGTAAACATGCCAGTCACACGTGGGCCTGCTTAGAAGGCCGATGGCCTTTGAGTAAATAAACAACACCTTGCATAAATCTCTGCACTTTGAGTGGCAAAGAGGCCATTCCCTGAGGGTGACTTGGAAAACCAGAGGTGCAGTGACTCAGCCTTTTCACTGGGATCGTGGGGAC | 0.45 |
| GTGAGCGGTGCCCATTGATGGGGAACTGGCAAAGTTTTTGCCAGAATTCAGAATTCAATGTAACATATGCTTTGCAGTTTTTCTGTTACGCTGTGATCAATGTATTTATGTGTATATGTGTAATCTCATGTAATGTGTGTGTGCGCATATGTGTTGGAGTAATAATATTGTGCCATTCCTGGTATATGGAAAATGGCCTCCAATTTCCCCCCAAATTCTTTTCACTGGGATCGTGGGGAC | 0.000666 |
| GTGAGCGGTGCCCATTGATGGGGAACTTGAATGCAGATTTCATAATTAAAATTGTTAATTAAATAATAATTAAAAGTGTTTTAATAATAAAAGTCCACAATTAAAATTATTTTTATGCCATGTTTACTTATTATTTATTAAACATGCATTGAATAATTGCAATATATCAAAGAGTTTTCTGTTAGTGTGAGATATAAAACTATAATGTTCCAGTCCTCATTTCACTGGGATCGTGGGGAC | 0.312 |

Repeated from above (block 1):
| Oligonucleotide | E-score |
| --- | --- |
| GAGGTGAC | -0.0171 |
| AAACTCAG | 0.109 |
| TAGTCGGA | -0.122 |
| AAGCAGAC | -0.188 |
| CCAAGCCG | -0.361 |
| GCAACGCA | -0.204 |
| CGAGCTCA | -0.159 |
| CGCCCAAG | -0.28 |
